Assay results collected from several papers.
Target: Glycogen synthase kinase-3 beta (GSK3B, Homo sapiens, UniProt P49841)
UniProt P49841, sequence (whole entry, looked up): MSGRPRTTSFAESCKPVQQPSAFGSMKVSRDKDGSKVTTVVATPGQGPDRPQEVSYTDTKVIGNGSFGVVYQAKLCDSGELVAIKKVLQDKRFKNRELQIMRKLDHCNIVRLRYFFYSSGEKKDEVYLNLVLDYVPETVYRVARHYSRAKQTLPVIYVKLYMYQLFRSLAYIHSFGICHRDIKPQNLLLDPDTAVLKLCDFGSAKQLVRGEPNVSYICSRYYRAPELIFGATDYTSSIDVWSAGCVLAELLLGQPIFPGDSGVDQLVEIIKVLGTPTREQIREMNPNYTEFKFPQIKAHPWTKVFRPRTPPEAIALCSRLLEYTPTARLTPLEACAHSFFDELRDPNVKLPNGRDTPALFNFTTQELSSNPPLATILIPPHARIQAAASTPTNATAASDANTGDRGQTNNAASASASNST

Structure (SMILES) = CC1Cc2ccccc2N1C1=C(c2ccccc2)C(=O)NC1=O (stereo not drawn); test = enzyme activity, inhibitor; endpoint = IC50; result = 4.53 µM
Structure (SMILES) = Cc1nn(-c2cccc(N)c2)c(=O)c2cnc(Nc3ccc(N4CCNCC4)cc3)nc12; test = enzyme activity, inhibitor; endpoint = IC50; result = 1.9 µM
Structure (SMILES) = Cn1ncc2cc(-c3cncc(Cl)c3N3CCC4(CCNC4=O)CC3)ccc21; test = cell-free assay; conditions = lysate; endpoint = Kd; result = 1.66 µM
Structure (SMILES) = COc1ccc(N(C)C2=C(c3ccccc3)C(=O)NC2=O)cc1; test = enzyme activity, inhibitor; endpoint = IC50; result = 30.3 µM
Structure (SMILES) = O=C(Nc1c[nH]nc1C(=O)NC1CCNCC1)c1cc(F)cc(F)c1; test = target engagement in cells, BRET; endpoint = IC50; result = 0.035 µM
Structure (SMILES) = Cc1cc(C)c(S(=O)(=O)N(CC(=O)O)c2ccc(Nc3ccnc(N4CCCC4)n3)cc2)c(C)c1; test = enzyme activity, inhibitor; endpoint = IC50; result = > 100 µM
Structure (SMILES) = CCN(CC)CC(=O)Nc1cccc(-n2cc(-c3ccc4ccc(-c5cn(-c6cccc(NC(=O)CN(CC)CC)c6)nn5)cc4c3)nn2)c1; test = enzyme activity, inhibitor; endpoint = IC50; result = > 10 µM
Structure (SMILES) = COc1ccc2c(c1)N(C1=C(c3ccccc3)C(=O)NC1=O)CC2; test = enzyme activity, inhibitor; endpoint = IC50; result = 13.1 µM
Structure (SMILES) = CCn1cc(C(=O)O)c(=O)c2c(N)c(F)c(NC3CCCCC3)cc21; test = enzyme activity, inhibitor; endpoint = IC50; result = 0.0082 µM

A few entries again:
Structure (SMILES) = COc1ccc(N(C)C2=C(c3ccccc3)C(=O)NC2=O)cc1; test = enzyme activity, inhibitor; endpoint = IC50; result = 30.3 µM
